Assay results from different studies.
Each numbered part is a random draw from the data of one study; scales do not carry over between parts.

Block 1
Target: POU, POU domain (Salpingoeca helianthica)
Technique: Spec-seq
Molecule type: double-stranded DNA, one strand shown
Medium: in vitro
Tested at: not given
Setting: whole probe, mean of replicates
Reference: not given
Reading: lower = stronger binding
All sequences stand within: GAGTCGTCTCGTCAGCAC … CCGTAGAGCACTCAGGTC
Residues (chain): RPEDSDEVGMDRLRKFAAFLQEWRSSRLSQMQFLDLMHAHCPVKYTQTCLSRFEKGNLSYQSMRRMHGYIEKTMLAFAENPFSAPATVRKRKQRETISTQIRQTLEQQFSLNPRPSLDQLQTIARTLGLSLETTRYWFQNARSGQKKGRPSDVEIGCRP
Strand	relative binding energy
ATGCTTTC	1.22 ln ratio
ATGGGAAT	1.44 ln ratio
CGGTTAAT	-0.298 ln ratio
CATCTAAT	0.356 ln ratio
ATAAACAT	0.361 ln ratio
ATAATAAT	-0.297 ln ratio
ATAGGGAT	1.33 ln ratio
ATAGATAT	0.703 ln ratio
ATGAAGAT	1.47 ln ratio

Block 2
Target: Ras GTPase-activating protein-binding protein 1, full length (G3BP1, Homo sapiens, UniProt Q13283)
Sequence of UniProt Q13283 (whole entry, looked up): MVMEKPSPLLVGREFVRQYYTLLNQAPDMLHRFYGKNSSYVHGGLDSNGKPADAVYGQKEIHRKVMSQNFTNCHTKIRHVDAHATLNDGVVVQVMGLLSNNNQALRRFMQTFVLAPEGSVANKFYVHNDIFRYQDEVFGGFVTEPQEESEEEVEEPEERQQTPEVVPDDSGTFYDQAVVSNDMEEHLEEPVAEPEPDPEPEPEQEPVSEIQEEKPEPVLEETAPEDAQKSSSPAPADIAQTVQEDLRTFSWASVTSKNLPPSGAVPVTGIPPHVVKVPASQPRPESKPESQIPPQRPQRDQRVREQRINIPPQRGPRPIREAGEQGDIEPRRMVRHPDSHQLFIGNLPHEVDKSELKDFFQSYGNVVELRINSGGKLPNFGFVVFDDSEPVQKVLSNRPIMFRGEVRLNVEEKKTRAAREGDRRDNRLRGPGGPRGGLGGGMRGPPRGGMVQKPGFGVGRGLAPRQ
Technique: RNA Bind-n-Seq
Molecule type: RNA
Medium: in vitro
Tested at: 200 nM
Setting: whole 134-nt RNA, ends assumed
Added: 150 mM KCl
Reference: input library
Reading: higher = stronger binding
All sequences stand within: GGGAGUUCUACAGUCCGACGAUC … UGGAAUUCUCGGGUGUCAAGG
Strand	log2 enrichment
UCAUCCUUUUUAAAUUUUUUUUUUUUUUUUGAGACGGUCUCACUCUCACCCAGGCUGGAUUGCAGUGGUGUGAUCUCGACCAACUGCAAC	-0.165
CUGAAGAGUCUGAGGAUGCCCAAUCACAGAGCCAAGCAGAUGAAGAGGAGGAAGAUGAUGAUUUUGGGGUGGAGUACUUGCUUGCCAGGG	0.179
CACAGACAACACGCACCCACACAGACACAGAGGGAAGGGGUUGGGAUGGGGCCAGGGUGCACAGCAGGGCGGGGUAGGACCCCAGCCCCU	1.84
GGGCCCUGGUGGCAUGCGGGGAGGAAGAGGUGGCCUCAUGGAUCGUGGUGGUCCCGGUGGAAUGUUCAGAGGUGGCCGUGGUGGAGACAG	0.445
UCCUGUGCUACACAUCGUAUGUACCGAAUCGGGUUUGGGAAAAAAAGGGAAAAAAAGGGAAAGUAUUAUGUUACGCCGUUCGGAUCUGCA	-0.0699
CACAGACAACACGCACCCACACAGACACAGAGGGAAGGGGUUGGGAUGGGGACAGGGUGCACAGCAGGGCGGGGCAGGACCCCAGCCCCU	1.82
GCAGGAAGUAAAAACAAAUGGAAAUGCUUCGGAUAGUGGCAGGGGGGGGGGUUGCUAAGGAAAGGGUGGGAUGGGAGUGGGUAAAGAGUU	1.19
UGGGAGGGGGAUUUUGUUUAUUUUUUUAGCUCAUUUCCAGGGGUGGGAAUUUUUUUUUAAUAUGUGUCAUGAAUAAAGUUGUUUUUGAAA	0.416
GCAGGAAGUAAAAACAAAUGGAAAUGCUUCGGAUAGUGGCAGGGGUGGGGGUUGCUAAGGAAAGGGUGGGAUGCGAGUGGGUAAAGAGUU	0.782

Block 3
Target: Interferon regulatory factor 5, full length, phosphomimetic (IRF5, Homo sapiens, UniProt Q13568-2, residues 1-514, K96S/S451D/S453D/S456D/S462D)
Technique: protein-binding microarray
Molecule type: double-stranded DNA, one strand shown
Medium: in vitro
Tested at: 250 nM
Setting: 60-bp whole probe
Added: salmon DNA 0.4 mg/ml
Reference: random background probes
Reading: higher = stronger binding
All sequences stand within: GCCTAGCAC … GTCTTGATTCGCTTGACGCTGCTG
Strand	log fluorescence [z-score]
TCAGTTTTGAGTTTTCCACTGTGCTAG	0.746
GACGGTATCCAACTGCTGACGTGCTAG	-0.345
TTAGGACTGGACTATCGGTCAGTGCTA	4.11
GACGATTTCAGACTAGAGACGTGCTAG	0.436
TTAAGTATCGGTTTCGGTTAGTGCTAG	11.5
GACGATTTCAGACTGGAGGCGTGCTAG	0.227
GACGATATCAGTTTCGAGGCGTGCTAG	6.17
TTAGGACTGGGTCTCGGTCAGTGCTAG	-0.227
TTCGATATCAGACTGGATTAGTGCTAG	1.08
TTAGATCTGAGTATCGATTAGTGCTAG	6.59

Block 4
Target: Histone acetyltransferase KAT6A, winged helix 1, GST fusion (KAT6A, Homo sapiens, UniProt Q92794, residues 1-85)
Technique: protein binding microarray
Molecule type: double-stranded DNA, one strand shown
Medium: in vitro
Tested at: not given
Setting: 8-mer, flanks averaged, mean of 2 arrays, mostly near background
Reference: not given
Reading: higher = stronger binding
Target sequence (chain): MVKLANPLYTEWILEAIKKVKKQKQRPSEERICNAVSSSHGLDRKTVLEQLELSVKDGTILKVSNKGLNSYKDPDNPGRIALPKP
Strand	E-score
AAGACGCG	0.262
AAATCCAT	-0.197
ACGGATCA	0.0712
AAGTACGT	-0.112
CGGCGATC	0.392
GGCGGTAC	0.314
GCATGTAA	0.179
CAAGAGGG	-0.241
CTACCGGA	0.0669
AGGCCGGA	0.175
GGGACCAA	-0.0596

Some of these lines once more (block 3):
Strand	log fluorescence [z-score]
GACGATTTCAGACTAGAGACGTGCTAG	0.436
TTAGGACTGGACTATCGGTCAGTGCTA	4.11
